Published values from different studies.
Numbers after ± are the reported error.

Structure (SMILES) | test | system | conditions | scale | endpoint | value
OC1CCN(c2ncc(-c3cc4ccc([18F])cc4[nH]3)cn2)CC1 | dynamic PET | Sprague-Dawley rats, both sexes, whole brain | intravenous, dose not given, 120 min | – | brain radioactivity | 0.4 SUV
CSCC[C@@H]1NC(=O)[C@@H]2CSSC[C@H](NC(=O)[C@H](CO)NC(=O)[C@H](C)N)C(=O)N[C@@H](CCCNC(=N)N)C(=O)N[C@@H]([C@@H](C)O)C(=O)N3CCC[C@H]3C(=O)N[C@@H](CCCCN)C(=O)N[C@@H](CC(=O)O)C(=O)N[C@H]3CSSC[C@H](NC(=O)[C@H](CCCCN)NC(=O)[C@H](CCCNC(=N)N)NC(=O)[C@H](CC(N)=O)NC1=O)C(=O)N[C@@H](CCCCN)C(=O)N[C@H]1CSSC[C@H](NC(=O)[C@@H]4CCCN4C(=O)[C@H](CC(=O)O)NC(=O)[C@H](C)NC3=O)C(=O)N[C@@H](C)C(=O)N[C@@H](CCCCN)C(=O)N[C@@H](CCC(=O)O)C(=O)N[C@@H]([C@@H](C)O)C(=O)NCC(=O)N[C@@H](CSSC[C@@H](C(N)=O)NC(=O)[C@H](CCCNC(=N)N)NC(=O)[C@H](CC(N)=O)NC1=O)C(=O)N1CCC[C@H]1C(=O)N[C@@H](Cc1ccc(O)cc1)C(=O)NCC(=O)N[C@@H](CCCCN)C(=O)N2 | – | DA rat, pristane-induced arthritis, serum | subcutaneous, 0.1 mg/kg every other day, end of 21-day trial | – | direct bilirubin | 0.002 mg/dL
C=Cc1cc(O)cc2nc(-c3ccc(O)c([76Br])c3)oc12 | – | female C57BL/6 mouse, liver | 1 h, high dose | – | tissue uptake | 0.4 ± 0.16 %ID/g
CN(C)C(CNC(=O)Nc1cc(C(F)(F)F)ccc1N1CCOCC1)c1ccncc1 (stereo not drawn) | – | mouse, serum | intraperitoneal, 180 mg/kg single dose | – | serum total protein | 4.3 g/dL
CSCC[C@H](NC(=O)[C@H](CC(N)=O)NC(=O)[C@@H](N)Cc1ccccc1)C(=O)N[C@@H](CCC(N)=O)C(=O)N[C@@H](C)C(=O)N[C@@H](CCC(N)=O)C(=O)N[C@@H](CCCNC(=N)N)C(=O)N[C@@H](CCCNC(=N)N)C(=O)N[C@@H](Cc1ccccc1)C(=O)N[C@@H](Cc1ccc(O)cc1)C(=O)N[C@@H](CCC(=O)O)C(=O)N[C@@H](C)C(=O)N[C@@H](CC(C)C)C(=O)N[C@@H](Cc1c[nH]cn1)C(=O)N[C@@H](CC(=O)O)C(=O)NCC(=O)NCC(=O)NCC(=O)NCC(=O)N[C@@H](CO)C(=O)N[C@@H](C)C(=O)N[C@@H](CCC(=O)O)C(=O)N[C@@H](C)C(=O)N[C@@H](CCC(=O)O)C(=O)N[C@@H](C)C(=O)N[C@@H](CCCCN)C(=O)N[C@@H](C)C(=O)N[C@@H](CCCCN)C(=O)N[C@@H](C)C(=O)N[C@@H](CCC(=O)O)C(=O)N[C@@H](C)C(=O)N[C@@H](CCC(=O)O)C(=O)N[C@@H](C)C(=O)N[C@@H](CCCCN)C(=O)N[C@@H](C)C(=O)N[C@@H](CCCCN)C(=O)O | – | EAK peptide fibrils | overnight, 37 °C, PBS, together with: EAK to compound ratio 2:1 | – | incorporation into fibrils | 13%
CN(C)c1ccc(C(=O)NCCCCN2CCN(c3ccccc3O[11CH3])CC2)cc1 | – | Sprague Dawley rat, male, total brain | intravenous, 5 min | – | brain uptake | 0.189 %ID/g
COCC(=O)NCCSc1c(-c2ccc(Br)cc2)[nH]c2ccccc12 | – | rat | – | – | Vd | 1.6 L/kg
CN[C@](C)(C[18F])C(=O)O | – | SCID mouse U87 xenograft | 30 min post injection | – | tumour uptake | 4.8 ± 0.9 %ID/g
O=C1C[NH+]2CP(=O)([O-])[O][99Tc-2]2[O]1.[C-]#[O+].[C-]#[O+].[C-]#[O+] (stereo not drawn) | radio-HPLC | rat, urine | – | relative to: activity | intact tracer | > 99%
C[C@@H](O)[C@H](NC(=O)[C@H](CCCCN)NC(=O)[C@H](Cc1c[nH]c2ccccc12)NC(=O)CN)C(=O)N[C@@H](CCCNC(=N)N)C(=O)NC(C)(C)C(=O)N[C@@H](CCCNC(=N)N)C(=O)NC(C)(C)C(=O)N[C@H](C(=O)N[C@@H](CO)C(=O)N[C@@H](Cc1c[nH]cn1)C(=O)N[C@@H](Cc1ccc(O)cc1)C(=O)NCC(=O)O)[C@@H](C)O | – | C57BL/6 mouse, blood | intravenous, 50 mg/kg, 10 h | relative to: leukocytes | monocytes | 3 to 5%
CCCCC[C@@H]1OC(=O)[C@@H](C)N(C)C(=O)[C@H](CCCCC)OC(=O)[C@@H](C)N(C)C(=O)[C@H](CCCCC)OC(=O)[C@@H](C)N(C)C(=O)[C@H](CCCCC)OC(=O)[C@@H](C)N(C)C1=O | – | Caco-2 | 10 µM, 2 h, pH 7.4 | – | Papp A→B | 1.2 ×10⁻⁶ cm/s
CCNc1cc2[o+]c3cc(NCC)c(C)cc3c(-c3ccccc3C(=O)OCCOCC[18F])c2cc1C | PET | rat | dose not given, 55 min | relative to: value at 5 min | liver concentration | 25%
COc1cc2ccnc(Cc3ccc(O[11CH3])c(OC)c3)c2cc1OC | – | Sprague-Dawley rat, hippocampus | i.v., 5 min | – | brain uptake | 0.188 %ID/g
CCc1c2c(nc3ccc(OC4OC(C(=O)O)C(O)C(O)C4O)cc13)-c1cc3c(c(=O)n1C2)COC(=O)C3(O)CC (stereo not drawn) | – | human patients, plasma | intravenous, 24 mg/m^2 of parent drug | – | Tmax | 8 h
COc1ccc(N=Nc2cccc(NC(=O)CCCCCCC(=O)NO)c2)cc1 | 1H NMR | DMSO | irradiation 365 nm | – | cis isomer content | 95%
CCCCCCCCCCCCCCCCCC(=O)Nc1ccn(C2OC(CO)C(O)C2(F)F)c(=O)n1 (stereo not drawn) | – | mice, serum | iv, 30 mg/kg gemcitabine equivalent, 24 h | – | ALT | 172 ± 22 mU/mL
CC(C)[C@@H]1NC(=O)[C@H](Cc2ccccc2)NC(=O)[C@H](Cc2ccc(O)cc2)NC(=O)CCSSC[C@@H](C(=O)N2CCC[C@H]2C(=O)N[C@H](CCCNC(=N)N)C(=O)NCC(N)=O)NC(=O)[C@H](CCC(N)=O)NC1=O | – | Wistar rat, blood | intravenous, 1 µg/kg single dose, 72 h | – | total protein | 6.9 ± 0.5 g/dL
CC[C@H](C)[C@H](NC(=O)[C@H](C)NC(=O)CNC(=O)[C@@H](N)CCSC)C(=O)N[C@@H](C)C(=O)N[C@@H](CCCCN)C(=O)N[C@@H](CC(C)C)C(=O)N[C@H](C(=O)N[C@@H](C)C(=O)N[C@@H](CCCCN)C(=O)N[C@@H](Cc1ccccc1)C(=O)NCC(=O)N[C@@H](Cc1c[nH]c2ccccc12)C(=O)N1CCC[C@H]1C(=O)N[C@@H](Cc1ccccc1)C(=O)N[C@H](C(=O)N[C@@H](CCCCN)C(=O)N[C@@H](CCCCN)C(=O)N[C@@H](Cc1ccccc1)C(=O)N[C@@H](Cc1ccc(O)cc1)C(=O)N[C@@H](CCCCN)C(=O)N[C@@H](CCC(N)=O)C(=O)N[C@H](C(=O)N[C@@H](CCSC)C(=O)N[C@@H](CCC(N)=O)C(=O)N[C@@H](Cc1ccccc1)C(=O)N[C@H](C(=O)NCC(=O)N[C@@H](CCC(N)=O)C(=O)NCC(=O)N[C@@H](Cc1c[nH]c2ccccc12)C(=O)N[C@H](C(=O)N[C@H](C(=O)N[C@@H](CC(=O)O)C(=O)N[C@@H](CCC(N)=O)C(=O)N[C@H](C(=O)N[C@@H](CCC(=O)O)C(=O)N[C@@H](CCCCN)C(=O)N[C@@H](Cc1c[nH]c2ccccc12)C(=O)N[C@@H](CC(C)C)C(=O)N[C@@H](CCCCN)C(=O)N[C@@H](CCCNC(=N)N)C(=O)N[C@@H](Cc1c[nH]cn1)C(=O)O)[C@@H](C)CC)[C@@H](C)CC)[C@@H](C)O)[C@@H](C)CC)[C@@H](C)CC)[C@@H](C)CC)C(C)C | thermal unfolding, far-UV CD | 10 mM sodium phosphate | 5-20 µM, pH 7.2 | – | Tm | 48.2 ± 0.3 °C
COc1cc(C(=O)NCCOCCOCCOCCNC(=O)c2ccc([18F])nc2)ccc1NC(=O)C1NC(CC(C)(C)C)C(C#N)(c2ccc(Cl)cc2F)C1c1cccc(Cl)c1F (stereo not drawn) | – | athymic male mice, SJSA-1 xenograft | 2 h | relative to: tumour over blood | tumour-to-tissue ratio | 1.15 ± 0.13
CC[C@H](C)[C@H](NC(=O)[C@H](CCCCN)NC(=O)[C@H](Cc1ccccc1)NC(=O)[C@H]1CCC[C@@H]1NC(=O)CN)C(=O)N[C@@H](C)CC(=O)N[C@@H](CCCCN)C(=O)N[C@@H](CCCCN)C(=O)N[C@H]1CCC[C@@H]1C(=O)N[C@H](C(=O)N[C@@H](CCCCN)C(=O)N[C@@H](CO)C(=O)N[C@H](CC(N)=O)Cc1ccccc1)C(C)C | RP-HPLC C18 | – | hydrophobicity | – | retention time | 15.38 ± 0.08 min
CSCC[C@H](NC(=O)CNC(=O)[C@H](CC(=O)O)NC(=O)[C@@H](NC(=O)[C@@H](NC(=O)[C@@H](NC(=O)CNC(=O)[C@H](CCC(N)=O)NC(=O)[C@H](CCSC)NC(=O)[C@H](CC(=O)O)NC(=O)[C@H](C)NC(=O)[C@H](C)NC(=O)[C@@H](NC(=O)[C@H](CO)NC(=O)[C@@H](N)CC(C)C)[C@@H](C)O)C(C)C)C(C)C)[C@@H](C)O)C(=O)N[C@@H](C)C(=O)N[C@@H](CO)C(=O)NCC(=O)N[C@@H](CC(C)C)C(=O)N[C@@H](CC(=O)O)C(=O)N[C@@H](CCCCN)C(=O)N[C@@H](CC(=O)O)C(=O)N[C@@H](Cc1ccc(O)cc1)C(=O)N[C@@H](CC(C)C)C(=O)N[C@@H](CCCCN)C(=O)N1CCC[C@H]1C(=O)N[C@@H](CC(=O)O)C(=O)N[C@@H](CC(=O)O)C(=O)O | – | human, serum | intravenous, 4.16 mg/kg, patients, infusion | – | AUC(0-t) | 3700 ng·h/mL
COc1ccc(C)cc1NC(=O)OC1CC2CCCC(C1)N2Cc1ccc(CC[18F])cc1 (stereo not drawn) | – | BALB/c mice EMT6 tumour, kidney | dose not given, 2 h | relative to: initial activity | activity reduction | 75%
COc1ccc(NC(=O)Cn2c(=O)c3ccccc3n(CC(=O)Nc3cc([125I])c(OC)cc3OC)c2=O)cc1 | – | rat, blood | intravenous, 5 min | – | tracer uptake | 0.19 %ID/g
C[C@@H]1CC[C@H]2[C@@H](C)CO[C@@H]3O[C@@]4(C)CC[C@@H]1[C@]32OO4 | – | male Sprague-Dawley rat, plasma | intravenous, 5 mg/kg | – | AUC(0-inf) | 605 ng·h/mL
CCCCCCCCCCCCC(=O)O.O=C1CCCC2C3CCCN4CCCC(CN12)C34 (stereo not drawn) | electrical conductivity | water | 298.15 K, critical micelle concentration | – | standard Gibbs energy of micellization | -7.44 kcal/mol
CCCCCCCC/C=C\CCCCCCCCOP(O)(O)=S.N | – | mouse, male, irradiated | subcutaneous, single dose 24 h after irradiation, together with: 15.6 Gy partial-body irradiation | – | CL/F | 9.68 mL/min/kg
CC[C@H](C)C(=O)N1CCC(NC(=O)Nc2ccc(OC(F)(F)F)c(F)c2)CC1 | – | healthy volunteers | oral, 24 mg single dose | – | subjects with laryngitis TEAE | 0%
CC(=CCC(O)C(C)=Cc1csc(C)n1)CC=CC(C)C(O)C(C)C(=O)C(C)(C)C(O)CC(=O)O (stereo not drawn) | – | human, plasma | intravenous infusion, 11.3 mg/m2 KOS-1584, 3 h infusion, cycle 1 | – | Tmax | 3.25 ± 0.51 h
CC(C)[C@H](NC(=O)CNC(=O)[C@H](CCC(N)=O)NC(=O)[C@H](C)N)C(=O)O | – | human | 10 mg/kg, 3 days, thrice daily dosing | – | subjects given concomitant medication | 0%
C=C(C)C12OC3(c4ccccc4)OC1C1C(O)C(Br)(CO)C(O)C4(O)C(=O)C(C)=CC4C1(O3)C(C)C2OC(=O)c1ccccc1 (stereo not drawn) | – | ICR mice, plasma | oral, 1 mg/kg | – | oral bioavailability | 64.1%

Repeated from above:
Structure (SMILES) | test | system | conditions | scale | endpoint | value
OC1CCN(c2ncc(-c3cc4ccc([18F])cc4[nH]3)cn2)CC1 | dynamic PET | Sprague-Dawley rats, both sexes, whole brain | intravenous, dose not given, 120 min | – | brain radioactivity | 0.4 SUV
COc1ccc(C)cc1NC(=O)OC1CC2CCCC(C1)N2Cc1ccc(CC[18F])cc1 (stereo not drawn) | – | BALB/c mice EMT6 tumour, kidney | dose not given, 2 h | relative to: initial activity | activity reduction | 75%
CC(C)[C@@H]1NC(=O)[C@H](Cc2ccccc2)NC(=O)[C@H](Cc2ccc(O)cc2)NC(=O)CCSSC[C@@H](C(=O)N2CCC[C@H]2C(=O)N[C@H](CCCNC(=N)N)C(=O)NCC(N)=O)NC(=O)[C@H](CCC(N)=O)NC1=O | – | Wistar rat, blood | intravenous, 1 µg/kg single dose, 72 h | – | total protein | 6.9 ± 0.5 g/dL
C=Cc1cc(O)cc2nc(-c3ccc(O)c([76Br])c3)oc12 | – | female C57BL/6 mouse, liver | 1 h, high dose | – | tissue uptake | 0.4 ± 0.16 %ID/g
CCNc1cc2[o+]c3cc(NCC)c(C)cc3c(-c3ccccc3C(=O)OCCOCC[18F])c2cc1C | PET | rat | dose not given, 55 min | relative to: value at 5 min | liver concentration | 25%
